Results pooled from the literature.
Protocols differ between the studies behind these lines. “And” joins repeats or separate records; there may be more than shown.

The viability of `C[C@@H]1C[C@@H]([C@H](O)CC2CC(=O)NC(=O)C2)C(=O)[C@@H](C)C1` is reported as 76.1% (MCF-10A; CellTiter-Glo; concentration not given; relative to: normalised, mean of replicates).
With `CC(C)[C@H](N)C(=O)N1CCC[C@H]1B(O)O` the viability was 98.2% and 97% and 98.3% (Ker-CT CASP1 knockout; cell death, CellTiter-Glo; 2 µM).
`COP(=O)(OC)OC=C(Cl)Cl` gave a viability of 105% (MCF-10A; CellTiter-Glo; concentration not given; relative to: normalised, mean of replicates).
`CCC1=N[C@H]2C[C@@]3(C(=O)N(OC)c4ccccc43)[C@H]3C[C@@H]1[C@@H]2CO3` — result for viability: “no effect” (HT-22; CCK-8; up to 100 µM, 24 h).
The viability of `N[C@@H]1C[C@H]1c1ccccc1` is reported as 142% (OCI-Ly1; 1 µM, 120 h).
`Cc1nn(-c2nc3ccc(Cl)c(Cl)c3[nH]2)c(O)c1C1OC(=O)c2ccccc21` (stereo not shown) has a viability of 96.6% and 98.5% and 113% and 114% and 108% (RAW-ISG; CCK-8; 10 µM).
For `CN(C)NC(=O)CCC(=O)O`, the viability was 125% (OCI-Ly1; 0.5 µM, 120 h).
`C=C[C@@]12CN(C)[C@H]3C[C@]14C(=Nc1ccccc14)[C@@H]1C[C@@H]2[C@@H]3CO1`: viability “no effect” (HT-22; CCK-8; up to 100 µM, 24 h).
For `c1ccc([C@@H]2C[C@H]2NC2CCNCC2)cc1`, the viability was 158% (OCI-Ly1; 1 µM, 120 h).
`COC[C@@H]([C@H](O)[C@H](O)C(=O)NCC[C@H](C)c1nc(/C=C/C[C@@H]2O[C@]3(C[C@@H](O)[C@@H]2C)O[C@H]([C@H](C[C@H](O)[C@H](C)[C@H](O)[C@H](C)/C=C(C)/C(C)=C/C=C/C(C)=C\C#N)OC)[C@H](OP(=O)(O)O)C3(C)C)co1)N(C)C` has a viability of 121% (MCF-10A; CellTiter-Glo; concentration not given; relative to: normalised, mean of replicates).

Some of these lines once more:
`CCC1=N[C@H]2C[C@@]3(C(=O)N(OC)c4ccccc43)[C@H]3C[C@@H]1[C@@H]2CO3` — result for viability: “no effect” (HT-22; CCK-8; up to 100 µM, 24 h).
